Measured values collected from several papers.
Protocols differ between the studies behind these lines. Values joined by “and” are separate records of one study, mostly repeats; a detail may differ.
T1: itself; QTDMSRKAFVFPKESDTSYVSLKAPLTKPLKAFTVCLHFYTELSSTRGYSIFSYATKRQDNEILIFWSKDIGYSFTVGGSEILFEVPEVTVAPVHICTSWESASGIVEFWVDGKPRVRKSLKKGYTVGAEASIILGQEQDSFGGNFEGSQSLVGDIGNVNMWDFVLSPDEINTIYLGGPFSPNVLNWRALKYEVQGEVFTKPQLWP
T2: itself; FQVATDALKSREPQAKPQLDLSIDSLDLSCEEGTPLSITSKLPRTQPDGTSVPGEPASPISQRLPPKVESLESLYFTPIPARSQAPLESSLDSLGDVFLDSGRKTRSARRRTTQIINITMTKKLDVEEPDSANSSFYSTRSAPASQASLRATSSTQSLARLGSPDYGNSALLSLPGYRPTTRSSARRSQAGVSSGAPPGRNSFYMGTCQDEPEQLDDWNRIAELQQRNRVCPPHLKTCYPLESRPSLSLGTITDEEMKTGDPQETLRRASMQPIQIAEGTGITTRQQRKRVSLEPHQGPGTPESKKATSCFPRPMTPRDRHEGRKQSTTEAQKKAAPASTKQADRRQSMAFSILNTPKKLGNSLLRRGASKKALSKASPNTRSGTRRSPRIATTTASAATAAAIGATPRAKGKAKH
T3: itself; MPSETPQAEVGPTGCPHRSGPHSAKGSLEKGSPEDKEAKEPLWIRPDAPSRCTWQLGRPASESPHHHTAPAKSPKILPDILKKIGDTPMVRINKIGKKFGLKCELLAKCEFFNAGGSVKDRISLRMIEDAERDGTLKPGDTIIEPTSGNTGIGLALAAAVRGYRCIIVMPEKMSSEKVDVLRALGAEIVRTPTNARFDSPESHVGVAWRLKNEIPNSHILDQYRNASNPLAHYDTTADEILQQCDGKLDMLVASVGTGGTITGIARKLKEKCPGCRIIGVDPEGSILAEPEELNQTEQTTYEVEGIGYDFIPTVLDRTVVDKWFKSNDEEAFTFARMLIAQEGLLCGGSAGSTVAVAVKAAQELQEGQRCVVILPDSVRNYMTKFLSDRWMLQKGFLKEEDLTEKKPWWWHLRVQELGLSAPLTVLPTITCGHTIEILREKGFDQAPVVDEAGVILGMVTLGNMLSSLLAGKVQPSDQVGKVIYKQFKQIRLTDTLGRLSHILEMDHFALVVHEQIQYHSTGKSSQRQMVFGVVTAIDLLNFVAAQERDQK
T4: itself; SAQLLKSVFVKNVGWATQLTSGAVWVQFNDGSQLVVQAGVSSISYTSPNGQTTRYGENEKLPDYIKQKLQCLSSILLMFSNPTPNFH
B1: CRP pentamer (x, UniProt P02741); chain QTDMSRKAFVFPKESDTSYVSLKAPLTKPLKAFTVCLHFYTELSSTRGYSIFSYATKRQDNEILIFWSKDIGYSFTVGGSEILFEVPEVTVAPVHICTSWESASGIVEFWVDGKPRVRKSLKKGYTVGAEASIILGQEQDSFGGNFEGSQSLVGDIGNVNMWDFVLSPDEINTIYLGGPFSPNVLNWRALKYEVQGEVFTKPQLWP
B2: human RALY; sequence looked up; chain SLKLQASNVTNKNDPKSINSRVFIGNLNTALVKKSDVETIFSKYGRVAGCSVHKGYAFVQYSNERHARAAVLGENGRVLAGQTLDINMAGEPKPDRPKGLKRAASAIYSGYIFDYDYYRDDFYDRLFDYRGRLSPVPVPRAVPVKRPRVTVPLVRRVKTNVPVKLFARSTAVTTSSAKIKLKSSELQAIKTELTQIKSNIDALLSRLEQIAAEQKANPDGKKKGDGGGAGGGGGGGGSGGGGSGGGGGGGSSRPPAPQENTTSEAGLPQGEARTRDDGDEEGLLTHSEEELEHSQDTDADDGALQ
B3: NUMA1 1700-2115 (Homo sapiens, UniProt Q14980); chain FQVATDALKSREPQAKPQLDLSIDSLDLSCEEGTPLSITSKLPRTQPDGTSVPGEPASPISQRLPPKVESLESLYFTPIPARSQAPLESSLDSLGDVFLDSGRKTRSARRRTTQIINITMTKKLDVEEPDSANSSFYSTRSAPASQASLRATSSTQSLARLGSPDYGNSALLSLPGYRPTTRSSARRSQAGVSSGAPPGRNSFYMGTCQDEPEQLDDWNRIAELQQRNRVCPPHLKTCYPLESRPSLSLGTITDEEMKTGDPQETLRRASMQPIQIAEGTGITTRQQRKRVSLEPHQGPGTPESKKATSCFPRPMTPRDRHEGRKQSTTEAQKKAAPASTKQADRRQSMAFSILNTPKKLGNSLLRRGASKKALSKASPNTRSGTRRSPRIATTTASAATAAAIGATPRAKGKAKH
B4: PLK4 884-970 (Homo sapiens, UniProt O00444); chain SAQLLKSVFVKNVGWATQLTSGAVWVQFNDGSQLVVQAGVSSISYTSPNGQTTRYGENEKLPDYIKQKLQCLSSILLMFSNPTPNFH
B5: Phl p 7 dimer (Phleum pratense, UniProt O82040); chain MADDMERIFKRFDTNGDGKISLSELTDALRTLGSTSADEVQRMMAEIDTDGDGFIDFNEFISFCNANPGLMKDVAKVF
B6: purine nucleoside phosphorylase (human); sequence looked up; chain MENGYTYEDYKNTAEWLLSHTKHRPQVAIICGSGLGGLTDKLTQAQIFDYGEIPNFPRSTVPGHAGRLVFGFLNGRACVMMQGRFHMYEGYPLWKVTFPVRVFHLLGVDTLVVTNAAGGLNPKFEVGDIMLIRDHINLPGFSGQNPLRGPNDERFGDRFPAMSDAYDRTMRQRALSTWKQMGEQRELQEGTYVMVAGPSFETVAECRVLQKLGADAVGMSTVPEVIVARHCGLRVFGFSLITNKVIMDYESLEKANHEEVLAAGKQAAQKLEQFVSILMASIPLPDKAS
Sequence of UniProt P61970 (whole entry, looked up): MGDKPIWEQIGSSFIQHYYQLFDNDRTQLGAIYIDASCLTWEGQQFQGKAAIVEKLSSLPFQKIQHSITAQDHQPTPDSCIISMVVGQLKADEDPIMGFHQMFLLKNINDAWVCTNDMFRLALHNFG
Sequence of UniProt Q47839 (whole entry, looked up): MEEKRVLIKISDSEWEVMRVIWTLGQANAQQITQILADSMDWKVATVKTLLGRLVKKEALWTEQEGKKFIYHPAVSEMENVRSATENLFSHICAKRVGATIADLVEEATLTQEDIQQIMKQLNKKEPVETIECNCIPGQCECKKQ

Substance	tested on	assay	system	conditions	how to read	measurement	value
UDP-2,3-diacylglucosamine hydrolase (Caulobacter crescentus)	itself	SEC	–	–	–	subunits per oligomer	2
TPI1 (Homo sapiens)	itself	native MS	–	not purified	–	subunits per oligomer	2
FOXM1 (Homo sapiens)	itself	non-reducing SDS-PAGE immunoblot	U2OS, lysate	not purified	–	subunits per oligomer	2
popZ del102-109 (Caulobacter crescentus)	itself	AUC	–	25 °C	–	subunits per oligomer	6
B1 (CRP pentamer)	T1, itself	cryo-EM	–	–	–	subunits per oligomer	5
NPM1 T46R (Homo sapiens)	itself	SEC-MALS	–	–	–	subunits per oligomer	2
popZ (Caulobacter crescentus)	itself	mass photometry	–	–	–	subunits per oligomer	12 and 18
MXAN_1565 GAF-AAA+ domains (Myxococcus xanthus)	itself	SEC	–	–	–	subunits per oligomer	2
ALDH7A1 fragment (Homo sapiens)	itself	AUC	–	added: NAD 1 mM	–	subunits per oligomer	4
sodN mature E17R/R47E (Streptomyces coelicolor)	itself	ESI-MS	–	denaturing conditions	–	subunits per oligomer	6
gene 82 (mycobacteriophage)	itself	crystal structure	–	–	–	subunits per oligomer	3
Gl2 (Gossypium hirsutum)	itself	native gel electrophoresis	–	–	–	subunits per oligomer	4
sodN mature R47A (Streptomyces coelicolor)	itself	SEC	–	–	–	subunits per oligomer	6 and 3
GCN2 HisRS-CTD (Chaetomium thermophilum)	itself	SEC-MALS	–	–	–	subunits per oligomer	2
aceF catalytic domain , homotrimer (Escherichia coli)	itself	SEC	–	–	–	subunits per oligomer	3
NUTF2 EGFP fusion (Homo sapiens, UniProt P61970)	itself	fluorescence fluctuation spectroscopy	–	brightness	–	subunits per oligomer	2
B2 (human RALY)	CYB5R4 knockout human cells	PP6 interaction, 3xFLAG-PP6C IP-MS	–	concentration not given	relative to: CYB5R4 KO over parental	log2 fold change	0.54
LECA (Pisum sativum)	itself	SAXS	–	40 °C	–	subunits per oligomer	2
Eco8 OLD nuclease (Escherichia coli)	itself	cryo-EM	–	–	–	subunits per oligomer	4
pAgo-associated nuclease fragment D298A (Escherichia coli)	itself	SEC	–	–	–	subunits per oligomer	2
bioE (Elizabethkingia meningoseptica)	itself	mass photometry	–	–	–	subunits per oligomer	2
B3 (NUMA1 1700-2115)	T2, itself	mass photometry	–	–	–	subunits per oligomer	> 2
comFB (Treponema denticola)	itself	mass photometry	–	without c-di-GMP	–	subunits per oligomer	2

Substance	tested on	assay	system	conditions	how to read	measurement	value
copY (Enterococcus hirae, UniProt Q47839)	itself	AUC	–	–	–	subunits per oligomer	2
ftsZ F224M (Spiroplasma melliferum)	itself	crystal structure	–	10 mg/mL, added: GDP	–	subunits per oligomer	2
SIR2 L97A/I101A/K106A/I107A (Paenibacillus sp.)	itself	SEC, AUC	–	mutant	–	subunits per oligomer	2
CBS (Homo sapiens, UniProt P35520)	T3, itself	crystal structure	–	–	–	subunits per oligomer	4
Piezo1 M2493A/F2494A (Mus musculus)	itself	SEC	not purified, clarified lysate	–	–	subunits per oligomer	3
DMD fragment (Homo sapiens)	itself	SEC-MALS	–	–	–	subunits per oligomer	2
B4 (PLK4 884-970)	T4, itself	SEC-MALS	–	–	–	subunits per oligomer	2
P2-RANTES fragment	itself	AUC	–	velocity sedimentation	–	subunits per oligomer	2
sarcolamban 33 aa peptide (Daphnia pulex)	itself	SDS-PAGE	–	–	–	subunits per oligomer	4
popZ fragment (Caulobacter crescentus)	itself	mass photometry	–	250 nM, no MgCl2	–	subunits per oligomer	6
ERF DNA-binding domain C72S (Homo sapiens)	itself	AUC	–	added: DNA	–	subunits per oligomer	4
comFB (Thermoanaerobacter brockii)	itself	mass photometry	–	without c-di-GMP	–	subunits per oligomer	2 and 4
SELENOS Sec to Cys (Homo sapiens)	itself	non-reducing SDS-PAGE Western blot	not purified	–	–	subunits per oligomer	2
B5 (Phl p 7 dimer)	itself	SEC	–	–	–	subunits per oligomer	2
B6	CYB5R4 knockout human cells	PP6 interaction, 3xFLAG-PP6C IP-MS	–	concentration not given	relative to: CYB5R4 KO over parental	log2 fold change	0.11
P2RX3 fragment (Canis lupus)	itself	cryo-EM	–	–	–	subunits per oligomer	3
CAMK2D D336C (Homo sapiens)	itself	X-ray crystallography	–	–	–	subunits per oligomer	12
ccmK2 fragment H75N/H76N/H82N (Synechococcus elongatus)	itself	SEC	–	–	–	subunits per oligomer	6
ZBTB5 fragment D68K/D98K (Homo sapiens)	itself	SEC, mass photometry	–	–	–	subunits per oligomer	2
Maackia amurensis seed lectin (Maackia amurensis)	itself	SEC-MALS	–	–	–	subunits per oligomer	4
argC crTP domain plus ArgC (Paulinella chromatophora)	itself	SAXS	–	–	–	subunits per oligomer	2
csm6 (Thermococcus onnurineus)	itself	X-ray crystallography	–	apo, wild type	–	subunits per oligomer	2
